Published values of several laboratories.
Every numbered part comes from another study and shows a few of its results, in no order. Substitutions count along the parent as printed.

Sample 1
Target: Protein C-ets-1 (ETS1, Homo sapiens, UniProt P14921, residues 1-441, full length assumed)
Sequence of UniProt P14921 (whole entry, looked up): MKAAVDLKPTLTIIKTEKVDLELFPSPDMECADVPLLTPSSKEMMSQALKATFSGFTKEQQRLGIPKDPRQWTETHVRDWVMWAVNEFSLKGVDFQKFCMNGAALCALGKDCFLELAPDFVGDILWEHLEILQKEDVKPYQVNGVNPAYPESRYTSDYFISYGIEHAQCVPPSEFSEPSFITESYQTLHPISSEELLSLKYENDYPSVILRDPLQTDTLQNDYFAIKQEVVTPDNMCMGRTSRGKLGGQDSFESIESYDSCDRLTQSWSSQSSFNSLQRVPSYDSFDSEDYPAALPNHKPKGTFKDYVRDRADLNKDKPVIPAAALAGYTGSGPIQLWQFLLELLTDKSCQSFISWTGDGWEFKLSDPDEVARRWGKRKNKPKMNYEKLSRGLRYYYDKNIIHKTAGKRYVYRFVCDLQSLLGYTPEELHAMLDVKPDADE
Method: protein-binding microarray
Molecule type: double-stranded DNA, one strand shown
Matrix: in vitro
Tested at: not given
Setting: k-mer, scored over probes, only values ≥0.25
Reading: higher = stronger binding
Measurement: E-score
ACGGACAT: 0.263
AGATTCCG: 0.296
CTTCCGTC: 0.461
CCCATCCG: 0.429
CGATATCC: 0.347
GGATGTAC: 0.375
AAAGGATG: 0.323
ATAACCGG: 0.344
GATCCGGC: 0.362
GCAACGGA: 0.323
TCCGACAA: 0.28
GATTCCGC: 0.29
CGGACATA: 0.286
AGTCGGAT: 0.287
ATGTCCTG: 0.281
GATGTGGA: 0.278
TATCCGCA: 0.413
GTAGGAGA: 0.255
ATGCTTCC: 0.431

Sample 2
Target: Interferon regulatory factor 3, full length, phosphomimetic (IRF3, Homo sapiens, UniProt Q14653, residues 1-427, S386D/S396D/S398D/S402D/T404D/S405D)
Method: protein-binding microarray
Molecule type: double-stranded DNA, one strand shown
Matrix: in vitro
Tested at: 2540 nM top
Setting: 60-bp whole probe
Together with: salmon DNA 0.4 mg/ml
Relative to: random background probes
Reading: higher = stronger binding
Measurement: fitted relative affinity
Constant ends, left off below: GCCTAGCAC … GTCTTGATTCGCTTGACGCTGCTG
Construct (chain): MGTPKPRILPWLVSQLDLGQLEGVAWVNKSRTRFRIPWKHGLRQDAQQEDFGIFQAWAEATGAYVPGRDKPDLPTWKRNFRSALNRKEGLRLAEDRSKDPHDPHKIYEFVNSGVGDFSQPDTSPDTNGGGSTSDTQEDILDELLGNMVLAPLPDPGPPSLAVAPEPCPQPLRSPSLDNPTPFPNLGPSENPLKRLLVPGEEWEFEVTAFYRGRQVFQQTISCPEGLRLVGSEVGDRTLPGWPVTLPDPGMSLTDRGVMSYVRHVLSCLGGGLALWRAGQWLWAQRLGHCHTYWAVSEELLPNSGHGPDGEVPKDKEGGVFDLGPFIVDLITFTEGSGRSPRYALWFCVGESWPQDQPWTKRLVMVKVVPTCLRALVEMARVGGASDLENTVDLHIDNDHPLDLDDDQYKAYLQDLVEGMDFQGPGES
GAGGGGGCAGGGACTCAGGGGTGCTAG: -0.552 z-score
GACGATCTCAGTATCGCGACGTGCTAG: 0.744 z-score
GACGATCTCAGTTTGGAGACGTGCTAG: 0.629 z-score
TCAGCTTCCTAATTCTCACTGTGCTAG: 1.63 z-score
GACGGTTTCGGGTTCCGGGACGTGCTA: 5.06 z-score
TCACTTCTCAATTAAAAACTGTGCTAG: 2.07 z-score
CTTAACCTGGGTCTCTGAAGGTGCTAG: 0.212 z-score
TCATCTTTCACTGCTGCACTGTGCTAG: 1.35 z-score
GACGATTCCAGTTTCTAGACGTGCTAG: 2.49 z-score
TTAAGTTCCCTTTTCCTTTAGTGCTAG: 7.09 z-score
TTTTTTATCAATCATTTTCGTGTGCTA: 1.51 z-score
TTAGGTATCGGTCTCGGTGAGTGCTAG: 4.35 z-score
TTAGGTATCGGACTGGCTTAGTGCTAG: 1.02 z-score
GACGGTTACCTTTTCCTGACGTGCTAG: 5.87 z-score
CTGCTGGCCTGTTGCTGGAAGTGCTAG: -0.638 z-score
TCATGTGTCTGATTATTACTGTGCTAG: 0.387 z-score
ATGGCTTTGCAGATAAATATGTGCTAG: -0.65 z-score
TCAAAAATGATTTTTTTACTGTGCTAG: 0.0494 z-score
GACGGTATCGGGTTTCGTGACGTGCTA: 2.51 z-score

Sample 3
Target: CCNF, cyclin fold, Cln2 fusion (human)
Method: yeast growth competition, sequencing
Matrix: yeast
Setting: strong parent motif
Relative to: not given
Reading: higher = stronger binding
Measurement: normalised enrichment score
Starting sequence: CDC6 docking peptide (human); TLKGRRLVFDNQL
TYKGRRLVFDNQL [L2Y]: 7.85
TLDGRRLVFDNQL [K3D]: 4.29
TFKGRRLVFDNQL [L2F]: 5.55
TLKGRRLVADNQL [F9A]: 0.529
TLKGRRLVFDAQL [N11A]: 9.27
TLKGRKLVFDNQL [R6K]: 8.25
TLKGRRLVFYNQL [D10Y]: 8.54
TLKGRRLVFDWQL [N11W]: 9.59
TLKGRRLDFDNQL [V8D]: 8.34
FLKGRRLVFDNQL [T1F]: 10.1
TEKGRRLVFDNQL [L2E]: 5.66
TLKGPRLVFDNQL [R5P]: -0.199
TDKGRRLVFDNQL [L2D]: 6.35
CLKGRRLVFDNQL [T1C]: 8.76
TLKGRELVFDNQL [R6E]: 4.3
TLKGLRLVFDNQL [R5L]: 1.65
TLKGRRLQFDNQL [V8Q]: 7.66
TLKGRRDVFDNQL [L7D]: 0.552
TLKIRRLVFDNQL [G4I]: 4.64
TLKGRRLVWDNQL [F9W]: 7.15
TLKGRRLVFDNQG [L13G]: 7.98
TKKGRRLVFDNQL [L2K]: 8
TLKGYRLVFDNQL [R5Y]: 0.941
TLSGRRLVFDNQL [K3S]: 7.29
TLKYRRLVFDNQL [G4Y]: 3.06

Sample 4
Target: RNA binding protein fox-1 homolog 2, RRM domain, GST-SBP tag (RBFOX2, Homo sapiens, UniProt O43251-10, residues 100-194)
Method: RNA Bind-n-Seq
Molecule type: RNA
Matrix: in vitro
Tested at: 365 nM
Setting: natural RNA segment, single round, ends assumed
Relative to: no-protein control
Reading: higher = stronger binding
Measurement: RBNS enrichment (R)
Residues (chain): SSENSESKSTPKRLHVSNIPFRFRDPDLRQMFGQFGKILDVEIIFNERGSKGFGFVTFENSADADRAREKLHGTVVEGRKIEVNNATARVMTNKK
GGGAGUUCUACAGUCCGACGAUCUUUAGAGUAAUUAUUUUAAGCAAAUAGCCUGGACGUAAGAGAUUCUCAUGCCAGCAUGCUUUCAUUUGUCAGUUGUUGUGACUGAGAGAUAAUGAAUGACACCUGAAAUGUGGAAUUCUCGGGUGCCAA: 1.38
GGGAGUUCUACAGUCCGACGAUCUAAGCAGGUUAACAGGAGCAUUGGCCACCAGCAGAAGGGCAUCACUGUCUCAGGCCUCAAGCCAGGCACCCAUCUCUGGAUGCCAGUCUAUAGCGGGUACCAGAGGAAAGUGGAAUUCUCGGGUGCCAA: 0.388
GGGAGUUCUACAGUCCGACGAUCACCAAGGAAUUGCCUCAGCCUCCUACCAGUCCUCCCUCACCCACCUUCUGUCUAGGUUCACUUGGUUUGUCAUCAGGAACUGAGCAGGUCCAGGACUCAGCUUUCUGCUUUGGAAUUCUCGGGUGCCAA: 0.708
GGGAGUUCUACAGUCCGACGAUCUCACUCCUUUCUAGGUCUUAGUUUUCCCAUGUACACAGGGUCCUCUAGUUGUGAAAAUCACUCAAGAUUGAGAGAACAGGCUGGCAUAGUGGGAUAAAGGGCCCAAAAGCUGGAAUUCUCGGGUGCCAA: 0.233
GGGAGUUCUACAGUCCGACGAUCGCUGGUCCCUAGGUUAGCGGGUUCCCAGCCCCCCUAAUCAGAGACUGAAGGACAAUUGACUUUUAUUUUUGUAUUUAAUUGACAUGAAUGUAAAGGGGACAGCUCAGGGUUGGAAUUCUCGGGUGCCAA: 0.818
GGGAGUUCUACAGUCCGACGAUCACCAACUGUAGGAGUCAGAGGUGUUGGCAAAAGUAUGCAUGAAUGCUAACCUUUGCACAUACUCUGUUUUUACUUUGAUGGCUUCUCCAGGUUUUUGUCAGGUACCACAUUGGAAUUCUCGGGUGCCAA: 0.633
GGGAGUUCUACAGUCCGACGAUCGGGCUCAAGCCCCCCGGGACCGCAAAGACCCCUAGCAGCAUGUCCCAGCCUGGAGCCACACCUUCUGAGGCCCCAGCCCAGACUCAUGACGCGGAGGGCAGACAGGCCGCUGGAAUUCUCGGGUGCCAA: 2.05
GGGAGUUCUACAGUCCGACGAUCUCUCCCGAGAGUGGCAGUCCUUUGAAUCGCUUCCCAGGGUGAAAGAUGGAAAGAGAUGAGCCUAAGGAUACCAGGUUCAAAACGGUUAUGACCAUACACACAGGCAUUUUUGGAAUUCUCGGGUGCCAA: 0.492
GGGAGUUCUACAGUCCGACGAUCCUACCCAGCACAGCAAAUGGUUGUAGUAAUUGCCAAAGCCCUCAUAAACCCCUCCGGCUUGAGGAGAGUGCAAUCAUGGCUCUGCUGCCUGCACUUGCUGGGUUCCUCCCUGGAAUUCUCGGGUGCCAA: 0.319
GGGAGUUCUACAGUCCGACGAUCUGUCAGCAGGCAGAGCAUUGCAGUUUAUUUAACUGAUGGCCAGGUUCUUGUUAGAACACCAAGCACACACUUGAGAUUAUUUAUUGAUCGAGGCAAAGUAAUUAGUCAUGUGGAAUUCUCGGGUGCCAA: 0.453
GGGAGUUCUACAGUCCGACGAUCCUAGAAGCUGUAAUGGAUGCUCUUUUCCUCCGAUUAUGUAGAAAUGUGCAUUCAAAAGGAAUAGAACGAAUUUCUGUCAUCCCGGUGACCCUCCUGGUGCCGGGCUCUUGUGGAAUUCUCGGGUGCCAA: 0.315
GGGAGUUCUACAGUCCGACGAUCUUUCAAUGUCAGUCACAGAGUGGAAGUUUCCCCAAAGUGGAAAGCUACCAUUGGGAACACAAGGGGCCCCUGAGGGGCCUCCACCUCACUGCCUUAAGUGAGUCCCGCCCUGGAAUUCUCGGGUGCCAA: 0.201

Sample 5
Target: CRIPT, C-terminal peptide
Method: DHFR complementation, deep sequencing
Matrix: yeast
Setting: single substitutions, model-inferred values
Relative to: wild type
Reading: higher = weaker binding
Measurement: binding free energy change
Starting sequence: ERBIN, PDZ domain 1 (human); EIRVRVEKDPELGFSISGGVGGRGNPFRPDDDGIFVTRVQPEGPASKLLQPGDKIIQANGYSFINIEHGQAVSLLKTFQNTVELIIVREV; partner TKNYKQTSV
K47P: 0.208 kcal/mol
G19D: 1.18 kcal/mol
I34S: 0.208 kcal/mol
L74V: -0.00888 kcal/mol
E42K: 0.1 kcal/mol
P41G: 0.33 kcal/mol
G22Q: -0.306 kcal/mol
P26R: 0.786 kcal/mol
V6N: 0.636 kcal/mol
D30K: 0.352 kcal/mol
V72G: 0.297 kcal/mol
P41I: 0.357 kcal/mol
G24L: 1.46 kcal/mol
Q50S: 0.0666 kcal/mol

Sample 6
Target: Histone acetyltransferase KAT6A, winged helix 2, GST fusion (KAT6A, Homo sapiens, UniProt Q92794, residues 85-181)
Method: protein binding microarray
Molecule type: double-stranded DNA, one strand shown
Matrix: in vitro
Tested at: not given
Setting: 8-mer, flanks averaged, mean of 2 arrays, mostly near background
Relative to: not given
Reading: higher = stronger binding
Measurement: E-score
Construct (chain): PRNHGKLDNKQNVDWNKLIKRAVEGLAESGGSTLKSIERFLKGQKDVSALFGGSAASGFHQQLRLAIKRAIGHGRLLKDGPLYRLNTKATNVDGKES
AACCCGGT: -0.115
CACGCTCC: -0.0285
GTCGGTCA: -0.0247
TTACTGAA: 0.127
CCAAATGA: -0.0998
GCATAGAA: 0.16
ACTGATCA: -0.0104
AAAAGTCA: -0.0838
CTCCGTCC: 0.0866
CGGATGCA: 0.0178
AGAGTGCG: 0.0712
GACAATAC: 0.0676
TGTAGGAA: -0.101
AAGGCTGC: -0.0107
CGCCTCGA: 0.252
TATATGCA: -0.213

Mixed results
PhoQ, residues 284 288 289 292 302 303 SMMNNA — fold induction (PhoP, residues 12 14 15 18 19 AQCLL (Escherichia coli, UniProt P23836); Sort-seq, measured: YFP reporter; E. coli; PhoQ-PhoP variant library, together with: 10 µM Mg2+; relative to: high Mg2+ state, higher = stronger signaling): 4.1

Some of these lines once more (sample 5):
G19D: 1.18 kcal/mol
I34S: 0.208 kcal/mol
L74V: -0.00888 kcal/mol
E42K: 0.1 kcal/mol
P41G: 0.33 kcal/mol
G22Q: -0.306 kcal/mol
P26R: 0.786 kcal/mol
V6N: 0.636 kcal/mol
D30K: 0.352 kcal/mol
V72G: 0.297 kcal/mol
P41I: 0.357 kcal/mol
G24L: 1.46 kcal/mol
Q50S: 0.0666 kcal/mol
